Measured values collected from several papers.
Each line is one published result; not all experiments were run side by side. “And” joins repeats or separate records; there may be more than shown. Ends that are not written are not given here.
B1: disulfide; chain ATCYCRTGRCATRESLSGVCEISGRLYRLCCR (disulfide (positions not given here))

Substance | tested on | assay | test system | conditions | how to read | endpoint | value
insulin human |  | item: KCNH7 mRNA | EcoHIV-infected mouse, brain | i.p., dose not given | relative to: PBS | fold change | 1.11
AFTCHCRR / SCYSTEYSYGTCTVMGINHRFCCL (disulfide) | Acinetobacter baumannii | crystal violet staining | peptide, 19606 | concentration not given |  | biofilm formation | 170% and 203% and 125% and 197% and 103%
colistin | Acinetobacter baumannii |  | carbapenem-resistant clinical isolate |  |  | MIC | 0.5 µg/mL
colistin | Acinetobacter baumannii |  | 1188767, multidrug-resistant |  |  | MIC | 0.25 µg/mL
polymyxin B | Acinetobacter baumannii |  | 17978, colistin-sensitive, Mueller-Hinton broth |  |  | MIC | 0.5 µg/mL
Polymyxin B | Acinetobacter baumannii |  | 17978 | sub-MIC |  | time to resistance | 3 to 4 days
tunicamycin | Acinetobacter baumannii | broth microdilution, EUCAST | ATCC 17978 | 18 to 24 h, 37 °C |  | MIC | > 64 µg/mL
Polymyxin B | Acinetobacter baumannii | broth microdilution, MH medium | carbapenem-resistant CCARM 12006 | 16 h, 37 °C |  | MIC | 8 µM
B1 | Acinetobacter baumannii | crystal violet staining | 19606 | concentration not given |  | biofilm formation | 114% and 128% and 168% and 118% and 205%
colistin sulfate | Acinetobacter baumannii | broth microdilution | 22933 |  |  | MIC | 0.4 µM
HNP1 T18A | Acinetobacter baumannii | crystal violet staining | 19606 | concentration not given |  | biofilm formation | 315% and 360% and 262% and 374% and 474% and 393%
Polymyxin B | Acinetobacter baumannii | broth microdilution | A1, clinical isolate, Mueller-Hinton broth | 20 h, 37 °C |  | MIC | 0.5 µg/mL

Repeated from above:
Substance | tested on | assay | test system | conditions | how to read | endpoint | value
colistin | Acinetobacter baumannii |  | carbapenem-resistant clinical isolate |  |  | MIC | 0.5 µg/mL
